Measured values gathered from unrelated publications.
Lines come from different studies, so protocols differ. Several values in a cell are separate wells, animals, samples, runs or records. ± gives the spread as reported.
GBA1 R534H: Lysosomal acid glucosylceramidase (GBA1, Homo sapiens, UniProt P04062, R534H)
Chain of UniProt P04062 (whole entry, unmodified, looked up): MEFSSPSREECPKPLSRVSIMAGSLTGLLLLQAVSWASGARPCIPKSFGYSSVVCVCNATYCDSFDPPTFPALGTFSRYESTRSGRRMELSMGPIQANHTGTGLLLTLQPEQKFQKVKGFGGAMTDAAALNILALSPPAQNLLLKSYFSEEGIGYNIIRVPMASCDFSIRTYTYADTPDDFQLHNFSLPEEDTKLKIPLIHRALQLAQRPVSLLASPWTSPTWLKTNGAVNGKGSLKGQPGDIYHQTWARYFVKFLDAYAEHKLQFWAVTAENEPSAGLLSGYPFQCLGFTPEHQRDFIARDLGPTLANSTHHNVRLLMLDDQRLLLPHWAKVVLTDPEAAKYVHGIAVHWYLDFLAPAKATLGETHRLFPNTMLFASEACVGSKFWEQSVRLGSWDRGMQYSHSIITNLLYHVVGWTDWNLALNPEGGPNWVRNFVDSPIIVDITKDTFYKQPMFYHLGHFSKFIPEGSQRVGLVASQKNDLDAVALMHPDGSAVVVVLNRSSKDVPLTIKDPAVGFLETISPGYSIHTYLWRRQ
HDAC6: Protein deacetylase HDAC6 (HDAC6, Homo sapiens, UniProt Q9UBN7)
Chain of UniProt Q9UBN7 (whole entry, looked up): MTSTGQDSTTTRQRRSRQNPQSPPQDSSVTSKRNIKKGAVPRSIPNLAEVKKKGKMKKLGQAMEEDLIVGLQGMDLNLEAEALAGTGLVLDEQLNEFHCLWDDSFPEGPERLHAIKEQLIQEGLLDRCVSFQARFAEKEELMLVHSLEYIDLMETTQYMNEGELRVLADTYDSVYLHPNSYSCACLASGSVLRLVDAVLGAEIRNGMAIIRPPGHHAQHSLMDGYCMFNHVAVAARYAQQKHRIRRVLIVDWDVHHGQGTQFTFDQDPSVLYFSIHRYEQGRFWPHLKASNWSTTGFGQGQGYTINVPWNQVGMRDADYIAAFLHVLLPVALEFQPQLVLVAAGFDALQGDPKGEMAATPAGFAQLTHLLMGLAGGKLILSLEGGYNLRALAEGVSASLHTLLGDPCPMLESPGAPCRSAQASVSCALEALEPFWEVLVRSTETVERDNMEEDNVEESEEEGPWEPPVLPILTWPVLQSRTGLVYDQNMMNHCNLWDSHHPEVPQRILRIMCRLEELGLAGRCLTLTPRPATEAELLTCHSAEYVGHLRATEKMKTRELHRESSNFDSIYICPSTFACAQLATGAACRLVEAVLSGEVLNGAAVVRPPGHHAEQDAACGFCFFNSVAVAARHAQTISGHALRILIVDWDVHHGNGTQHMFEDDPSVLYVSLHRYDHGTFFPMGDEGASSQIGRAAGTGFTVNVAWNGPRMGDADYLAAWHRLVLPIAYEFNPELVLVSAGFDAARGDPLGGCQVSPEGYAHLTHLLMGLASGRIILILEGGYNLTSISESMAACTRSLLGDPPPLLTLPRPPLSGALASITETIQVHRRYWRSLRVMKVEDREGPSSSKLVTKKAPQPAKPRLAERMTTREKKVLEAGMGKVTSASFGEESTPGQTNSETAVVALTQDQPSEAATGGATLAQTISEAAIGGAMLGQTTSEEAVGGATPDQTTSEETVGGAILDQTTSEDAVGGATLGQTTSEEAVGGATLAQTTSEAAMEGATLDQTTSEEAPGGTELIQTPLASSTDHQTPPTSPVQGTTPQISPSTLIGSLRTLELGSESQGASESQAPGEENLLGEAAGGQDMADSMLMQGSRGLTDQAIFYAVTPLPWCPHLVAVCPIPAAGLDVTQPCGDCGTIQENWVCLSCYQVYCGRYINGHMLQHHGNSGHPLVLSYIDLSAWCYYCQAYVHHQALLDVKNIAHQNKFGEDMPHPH
CA12: Carbonic anhydrase 12 (CA12, Homo sapiens, UniProt O43570)
Chain of UniProt O43570 (whole entry, looked up): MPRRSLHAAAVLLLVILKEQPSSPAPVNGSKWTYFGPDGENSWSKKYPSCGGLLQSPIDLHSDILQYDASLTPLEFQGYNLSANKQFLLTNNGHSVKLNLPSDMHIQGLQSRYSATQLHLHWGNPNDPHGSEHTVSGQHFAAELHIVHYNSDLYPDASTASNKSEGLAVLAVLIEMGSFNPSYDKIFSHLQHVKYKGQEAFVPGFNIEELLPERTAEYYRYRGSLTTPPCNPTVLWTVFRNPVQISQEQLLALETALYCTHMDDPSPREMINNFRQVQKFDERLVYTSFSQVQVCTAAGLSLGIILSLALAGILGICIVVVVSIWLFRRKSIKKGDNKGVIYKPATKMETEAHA
POLL: DNA polymerase lambda (POLL, Homo sapiens, UniProt Q9UGP5)
Chain of UniProt Q9UGP5 (whole entry, looked up): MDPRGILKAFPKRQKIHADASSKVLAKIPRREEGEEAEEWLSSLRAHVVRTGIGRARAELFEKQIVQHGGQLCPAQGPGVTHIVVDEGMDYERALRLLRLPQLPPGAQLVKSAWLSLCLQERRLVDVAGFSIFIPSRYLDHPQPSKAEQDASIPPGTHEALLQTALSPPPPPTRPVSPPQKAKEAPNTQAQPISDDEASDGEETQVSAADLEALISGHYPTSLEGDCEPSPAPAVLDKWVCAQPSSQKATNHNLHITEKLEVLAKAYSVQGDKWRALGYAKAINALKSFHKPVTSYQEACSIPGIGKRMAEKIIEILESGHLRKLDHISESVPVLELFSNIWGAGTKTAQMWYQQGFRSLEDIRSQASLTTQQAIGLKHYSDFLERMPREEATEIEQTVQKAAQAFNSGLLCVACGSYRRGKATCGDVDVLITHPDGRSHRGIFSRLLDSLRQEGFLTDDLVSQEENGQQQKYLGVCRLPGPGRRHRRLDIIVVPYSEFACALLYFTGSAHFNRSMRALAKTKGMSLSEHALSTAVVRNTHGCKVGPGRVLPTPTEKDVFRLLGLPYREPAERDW
Chain of UniProt P07478 (whole entry, looked up): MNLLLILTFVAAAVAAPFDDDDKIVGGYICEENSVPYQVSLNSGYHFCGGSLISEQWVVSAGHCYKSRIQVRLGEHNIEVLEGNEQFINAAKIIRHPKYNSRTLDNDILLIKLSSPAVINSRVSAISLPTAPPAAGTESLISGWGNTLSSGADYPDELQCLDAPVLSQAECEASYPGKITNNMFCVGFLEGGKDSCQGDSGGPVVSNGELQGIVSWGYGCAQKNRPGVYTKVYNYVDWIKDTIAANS
Chain of UniProt P43220 (whole entry, looked up): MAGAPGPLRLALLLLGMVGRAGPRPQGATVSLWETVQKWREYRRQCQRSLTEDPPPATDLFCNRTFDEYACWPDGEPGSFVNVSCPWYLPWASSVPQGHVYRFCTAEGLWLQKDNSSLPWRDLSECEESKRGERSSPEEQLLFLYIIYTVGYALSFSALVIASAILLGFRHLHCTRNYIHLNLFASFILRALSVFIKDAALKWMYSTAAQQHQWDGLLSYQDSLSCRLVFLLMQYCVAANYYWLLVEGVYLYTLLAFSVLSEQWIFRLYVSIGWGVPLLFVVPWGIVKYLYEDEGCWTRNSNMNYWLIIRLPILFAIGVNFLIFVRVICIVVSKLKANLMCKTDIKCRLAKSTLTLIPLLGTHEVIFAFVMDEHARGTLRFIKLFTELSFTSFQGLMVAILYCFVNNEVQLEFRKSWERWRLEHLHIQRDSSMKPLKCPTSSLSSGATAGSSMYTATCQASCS
Chain of UniProt P11086 (whole entry, looked up): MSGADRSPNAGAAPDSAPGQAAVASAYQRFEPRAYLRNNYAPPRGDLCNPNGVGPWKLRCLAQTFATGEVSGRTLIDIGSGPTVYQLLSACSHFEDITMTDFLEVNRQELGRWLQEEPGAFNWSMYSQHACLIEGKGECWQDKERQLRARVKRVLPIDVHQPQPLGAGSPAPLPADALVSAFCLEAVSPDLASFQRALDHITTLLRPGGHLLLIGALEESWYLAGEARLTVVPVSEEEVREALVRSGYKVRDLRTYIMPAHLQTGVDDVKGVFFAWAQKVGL
Chain of UniProt P28223 (whole entry, looked up): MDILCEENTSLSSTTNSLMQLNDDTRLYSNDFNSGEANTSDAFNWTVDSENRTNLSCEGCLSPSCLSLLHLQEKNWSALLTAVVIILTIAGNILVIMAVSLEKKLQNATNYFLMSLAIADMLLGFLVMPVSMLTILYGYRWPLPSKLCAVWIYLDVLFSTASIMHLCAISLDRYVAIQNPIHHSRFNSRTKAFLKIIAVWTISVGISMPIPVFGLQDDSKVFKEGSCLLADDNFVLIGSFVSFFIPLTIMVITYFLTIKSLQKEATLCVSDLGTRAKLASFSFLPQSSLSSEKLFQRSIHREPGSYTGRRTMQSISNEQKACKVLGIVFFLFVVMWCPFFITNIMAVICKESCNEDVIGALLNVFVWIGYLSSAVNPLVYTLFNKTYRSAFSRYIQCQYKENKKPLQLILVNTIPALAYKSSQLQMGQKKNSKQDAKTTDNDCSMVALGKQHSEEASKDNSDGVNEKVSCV
Chain of UniProt P43235 (whole entry, looked up): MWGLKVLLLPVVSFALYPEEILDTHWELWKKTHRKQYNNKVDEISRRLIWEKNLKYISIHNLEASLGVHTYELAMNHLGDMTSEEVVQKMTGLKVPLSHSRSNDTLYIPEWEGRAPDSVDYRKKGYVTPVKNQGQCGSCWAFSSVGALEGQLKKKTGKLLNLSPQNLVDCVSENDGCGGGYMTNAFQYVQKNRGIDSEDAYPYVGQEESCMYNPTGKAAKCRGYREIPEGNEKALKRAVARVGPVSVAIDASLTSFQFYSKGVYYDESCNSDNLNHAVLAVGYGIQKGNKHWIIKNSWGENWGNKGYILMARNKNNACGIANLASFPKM

Structure (SMILES)	target	assay	setting	quantity	value
Cn1ccc2c(N3CCN(CCCCOc4ccc5c(c4)NC(=O)CC5)CC3)cccc21	5-hydroxytryptamine receptor 2A (HTR2A, Homo sapiens, UniProt P28223)	ligand displacement, radioligand		Ki	0.122 µM
Cc1nc(-c2c[nH]c(C(=O)Nc3ncccc3O)c2)cs1	Trypsin-2 (Homo sapiens, UniProt P07478)	mixed inhibitor, Z-GPR-pNA substrate		Ki	189 µM and 181 µM
OC[C@@H]1[C@@H](O)[C@H](O)[C@@H](O)CN1CCCC(F)(F)COCc1ccc(-c2ccccc2)cc1	GBA1 R534H	inhibitor, 4MU-β-D-glucopyranoside	together with: 4MU-β-D-glucopyranoside	IC50	0.3 µM
O=C(NO)c1cc(F)cc(OS(=O)(=O)Oc2ccc3ccccc3c2)c1	HDAC6	enzyme activity, inhibitor, fluorescence		Ki	0.053 µM
Nc1ncnc2c1ncn2[C@@H]1O[C@H](CNCCCc2cncc3ccccc23)[C@@H](O)[C@H]1O	Phenylethanolamine N-methyltransferase (PNMT, Homo sapiens, UniProt P11086)	inhibitor, SAH deaminase coupled		Ki	no inhibition
CC[C@@H]1NC(=O)[C@H](CCCNC(=N)N)NC(=O)[C@H](NC(=O)C(C)C)CNC(=O)c2cc(F)c(c(F)c2)N=Nc2c(F)cc(cc2F)C(=O)NCCNC1=O	WD repeat-containing protein 5 (WDR5, Homo sapiens, UniProt P61964)	binding, inhibitor, competitive fluorescence polarization	cis isomer, 520 nm photostationary state	Ki	1.52 µM
CCCCCCC1CCCC(=O)O1 (centres unmarked)	CA12	enzyme activity, inhibitor, stopped-flow		Ki	6.2 µM
O=C(NCc1ccc2c(c1)CN(C(=O)c1cc(-c3ccccc3)no1)C2)C1C=CC=CC=C1	FSP1	NADH oxidase activity, inhibitor	pH 7.2, together with: NADH varied, no coenzyme Q1	Ki	3.02 ± 0.78 µM
O=P(O)(O)OP(=O)(O)OP(=O)(O)OCCCCO	POLL	DNA polymerase activity, inhibitor	together with: 1 mM Mg2+, poly(dA)/oligo(dT)	Ki	22 µM
COc1cc(C2C(NC(=O)c3ccc(NC(=O)OC(C)(C)C)cc3)(C(=O)O)C(c3ccc(OC(=O)c4cccs4)c(OC)c3)C2(NC(=O)c2ccc(NC(=O)OC(C)(C)C)cc2)C(=O)O)ccc1OC(=O)c1cccs1 (centres unmarked)	Glucagon-like peptide 1 receptor (GLP1R, Homo sapiens, UniProt P43220)	ligand displacement in cells, radioligand		Ki	3.16 µM
O=C(NO)c1cccc(OS(=O)(=O)Oc2ccccc2)c1	HDAC6	enzyme activity, inhibitor, fluorescence		Ki	0.059 µM
COC(=O)CN1CCCc2cc3cc(C(=O)NC(Cc4cccc(Cl)c4)C(=O)NCC=CS(=O)(=O)c4ccccc4)c(=O)oc3cc21 (centres unmarked)	Cathepsin K (CTSK, Homo sapiens, UniProt P43235)	enzyme activity, inhibitor, fluorescence		Ki	0.0766 µM
OC[C@H]1[C@@H](O)[C@H](O)[C@@H](O)CN1CCCCCOCc1ccc(-c2ccccc2)c(C(F)(F)F)c1	GBA1 R534H	inhibitor, 4MU-β-D-glucopyranoside	together with: 4MU-β-D-glucopyranoside	IC50	6 µM
O[C@@H]1[C@@H](O)[C@H](F)C=C[C@H]1O	Lysosomal acid glucosylceramidase (GBA1, Homo sapiens, UniProt P04062)	covalent inhibitor, continuous progress curves	pH 5.2, 25 °C	Ki	3400 µM
CC(C)c1ccc(OS(=O)(=O)Oc2cncc(C(=O)NO)c2)cc1	HDAC6	enzyme activity, inhibitor, fluorescence		Ki	0.028 µM
O=C(NCCCCOP(=O)(O)OP(=O)(O)OP(=O)(O)O)OCC1c2ccccc2-c2ccccc21	POLL	enzyme activity, inhibitor, radiometric		Ki	2.1 µM
Cc1cc(=O)oc2cc(OCCCCCCSC#N)ccc12	CA12	enzyme activity, inhibitor, stopped-flow		Ki	0.0631 µM

Some of these lines once more:
Structure (SMILES)	target	assay	setting	quantity	value
O=C(NCCCCOP(=O)(O)OP(=O)(O)OP(=O)(O)O)OCC1c2ccccc2-c2ccccc21	POLL	enzyme activity, inhibitor, radiometric		Ki	2.1 µM
CCCCCCC1CCCC(=O)O1 (centres unmarked)	CA12	enzyme activity, inhibitor, stopped-flow		Ki	6.2 µM
Nc1ncnc2c1ncn2[C@@H]1O[C@H](CNCCCc2cncc3ccccc23)[C@@H](O)[C@H]1O	Phenylethanolamine N-methyltransferase (PNMT, Homo sapiens, UniProt P11086)	inhibitor, SAH deaminase coupled		Ki	no inhibition
